Assay results gathered from unrelated publications.
Each numbered part is a random draw from the data of one study; scales do not carry over between parts. Changes are numbered by the printed parent chain.

Sample 1 — method: protein binding microarray; form: double-stranded DNA, one strand shown; matrix: in vitro; tested at: not given; reference: not given; direction: higher = stronger binding
Target: Histone acetyltransferase KAT6A, winged helix 2, GST fusion (KAT6A, Homo sapiens, UniProt Q92794, residues 85-181)
Setting: 8-mer, flanks averaged, mean of 2 arrays, mostly near background
Construct (chain): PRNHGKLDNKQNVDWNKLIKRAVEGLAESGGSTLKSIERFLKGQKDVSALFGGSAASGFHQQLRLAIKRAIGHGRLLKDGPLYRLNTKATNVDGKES
| Sequence | E-score |
| --- | --- |
| AGTTGCTC | 0.0694 |
| CCTATGAA | -0.181 |
| CTGAACCA | 0.0678 |
| GCATGCAC | -0.0493 |
| ACACCCTC | 0.062 |
| CTATTCCA | -0.00786 |
| CAAGCACC | -0.15 |
| GACTCCTA | -0.216 |
| CTCGTTAC | -0.0343 |
| ACAACGGT | -0.145 |
| AGTTGGAT | -0.0653 |
| GCCGAGCA | 0.202 |
| ATAAGTCA | -0.134 |
| CAGATTTC | 0.0471 |
| CCGAAGGA | 0.0245 |
| CAATCGGG | -0.052 |
| GTGTCCAA | 0.135 |
| CACGGGGA | 0.0834 |
| AAAATCAC | 0.0694 |

Sample 2 — method: EMSA with sequencing; form: double-stranded DNA, one strand shown; matrix: in vitro; tested at: 10 and 20 nM; reference: negative control set to 0; direction: higher = stronger binding
Target: Hepatocyte nuclear factor 3-alpha (Foxa1, Mus musculus, UniProt P35582, residues 1-468, full length assumed)
Setting: whole designed probe, mean of two concentrations, ends assumed
Residues (chain): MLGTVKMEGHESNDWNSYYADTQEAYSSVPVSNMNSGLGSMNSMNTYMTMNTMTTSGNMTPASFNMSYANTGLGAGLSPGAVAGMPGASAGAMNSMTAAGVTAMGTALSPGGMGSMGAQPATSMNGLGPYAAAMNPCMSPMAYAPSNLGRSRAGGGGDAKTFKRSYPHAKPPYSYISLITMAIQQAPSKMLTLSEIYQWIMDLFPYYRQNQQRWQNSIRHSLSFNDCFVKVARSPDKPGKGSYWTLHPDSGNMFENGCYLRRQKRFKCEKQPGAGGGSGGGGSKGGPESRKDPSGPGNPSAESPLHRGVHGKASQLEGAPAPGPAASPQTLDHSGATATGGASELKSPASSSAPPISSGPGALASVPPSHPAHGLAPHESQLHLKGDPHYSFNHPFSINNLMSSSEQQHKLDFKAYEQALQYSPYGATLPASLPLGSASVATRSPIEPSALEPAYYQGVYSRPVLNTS
| Sequence | normalised bound fraction [ratio] |
| --- | --- |
| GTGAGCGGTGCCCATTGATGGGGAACCTTCAAAGTAGCTCCCATATGGACTGAATATAGGATACGAGCCTCTGCCTAGCCTTCAGTCCTTTTTGTTTGGTTTAGGTGTTGGTTGTCTTTGTAAACACTGGAAGCTGCTGAGTGTTCTCCCTCGGCTTTTTCCATCACACTTTACCCCACATACATTCATACACACTTGGCTCAAGCTTTTCGGTTCTTTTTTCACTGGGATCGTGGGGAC | 0.361 |
| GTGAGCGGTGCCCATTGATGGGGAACAGGTGAATTGGCTGCTTCCATCCTGGCTTGGAACTTCAGACATAGAAGCCTTGGGACTTTCTCAGGACTTTCTCCAGATCTGTCACATGCTCAGCAAACAAGCATCTCTGTGGATCACGTCTGACTCATGCGGGATGTTGGTGAAACTGTGTGTTGGTCTAGGTACCTAGCCCATGCTAGGTGCTCATCGAATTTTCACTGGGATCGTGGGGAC | 0.114 |
| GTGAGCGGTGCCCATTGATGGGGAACGGAGTTATCAGGAGACATTTTATGGTGAACATGGATATAAGTTTGTTCCTGAAGGATGCAGGGAATTCAGTAACACAGAAAAACAGTTCAAAGTAATCTTGAACAAAACTCCAGAGATGGGTACACAGATGTGTAAAGATGGAGTTAGGTGGGCTACATGTAGATGATGAAGCCCACATATGTCACCAAAGCATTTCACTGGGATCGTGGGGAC | -0.0115 |
| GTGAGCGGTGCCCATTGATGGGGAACCCCTACAATGGCTGGAATATGGAGTGAAATGCCAGGGTGGTCCCTACTAAGTGCATGGACATGGTAGGTTAACTGCTTTTTTTCTAGGAGCTGAGTAAACAGAGAGGGTCACACAGAAAAACATTTGTTTCTGTTTTGATCATGCCCTTTTAAGGTGCATGTTATACAGATCAAGATTCCAACTGCTACGAGTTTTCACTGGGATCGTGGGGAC | 0.347 |
| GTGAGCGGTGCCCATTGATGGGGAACAAAGAAAGCAGCTCACTGGGTGAAGGACCTTGAGAAAGAGATGAACATTTCCTCTCTTGAGACACAGGACAAACAAGGTCACGCCTGAGCTCGGCAATCTAGGACTTCGGTGCCTGCCTACGGCGCCATTGCGCCCTCTAGTGGCTGCTGAGGAACCGCTGTCCAGCCCGAAGCTCACAGAGCCCCGTTCAGGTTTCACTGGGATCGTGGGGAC | 0.0133 |

Sample 3 — method: DHFR PCA, deep sequencing; matrix: yeast; added: (+)-ABA 0 µM; reference: wild-type fitted maximum; direction: higher = stronger binding
Target: ABI1, truncated, D143A, DHFR fusion (Arabidopsis thaliana)
Setting: methotrexate growth selection, single substitutions
Starting sequence: PYL1, truncated, DHFR fusion (Arabidopsis thaliana); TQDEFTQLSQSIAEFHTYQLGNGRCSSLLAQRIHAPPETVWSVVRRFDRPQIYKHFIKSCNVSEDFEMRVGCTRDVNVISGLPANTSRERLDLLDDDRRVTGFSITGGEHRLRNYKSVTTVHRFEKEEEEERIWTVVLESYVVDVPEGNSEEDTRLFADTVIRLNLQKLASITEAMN
| Substitution | relative binding score |
| --- | --- |
| I162K | 10.1% |
| V137T | -0.481% |
| V76K | 3.12% |
| N149Q | 61% |
| A35C | 2.3% |
| T6C | 24.6% |
| C25Q | -10.8% |
| E151S | 19.5% |
| L164K | 3.68% |
| L169C | -5.31% |
| F103I | -3.71% |
| C60P | -3.06% |
| E38N | -1.23% |
| G108N | -4.98% |
| N85A | 50% |
| S26K | 3.2% |
| V44A | -1.08% |
| M68C | 2.56% |

Sample 4 — method: RNA Bind-n-Seq; form: RNA; matrix: in vitro; tested at: not given; reference: input RNA pool; direction: higher = stronger binding
Target: RING finger protein unkempt homolog, zinc fingers 1-6, GST-SBP tag (UNK, Homo sapiens, UniProt Q9C0B0, residues 30-357)
UniProt Q9C0B0, sequence (30-357, looked up): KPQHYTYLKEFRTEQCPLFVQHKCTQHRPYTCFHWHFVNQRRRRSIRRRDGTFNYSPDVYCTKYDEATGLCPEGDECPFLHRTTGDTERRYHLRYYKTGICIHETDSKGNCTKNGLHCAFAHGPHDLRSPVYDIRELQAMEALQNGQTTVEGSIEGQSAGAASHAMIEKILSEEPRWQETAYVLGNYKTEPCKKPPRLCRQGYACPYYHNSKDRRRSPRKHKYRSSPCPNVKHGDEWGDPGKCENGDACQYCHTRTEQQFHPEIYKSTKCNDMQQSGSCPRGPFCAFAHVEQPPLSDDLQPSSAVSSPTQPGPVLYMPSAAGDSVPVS
Setting: RNA with constant flanks, human-mouse chimeric sites, ends assumed
| Sequence | bound/input enrichment |
| --- | --- |
| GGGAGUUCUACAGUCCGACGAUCCGCUUGGAUGAGGCGGGUGUUACUGAUGAAGUGCUAGAUUCUGCCAUGCAAGCCUUCCUUCUGGAGGUCAUUGUUAAACAUGGGGAGCCGGCACCUUAUUUAUGUAACAAAGAUCCGUUUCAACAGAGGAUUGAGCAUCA | 0.122 ratio |
| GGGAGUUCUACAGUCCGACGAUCAUCCAGUACUCGAAUCACAAAGAACUAAAGACAGAUAAUACAUUAAACCAACGUGCUCAAGUAGUUCUUCAAGCUGUGACAGCUGUCCAGACAGCAAAUACUCCUCUUAGUGGCACCACACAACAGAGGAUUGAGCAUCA | 0.34 ratio |
| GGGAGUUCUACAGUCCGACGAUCACUCAGAGAUCCACCUCCCAAAGUGCUGGGAGUAAAGGUGUGGCCACCACACCUAACUUCAUAGACAUAUAUUUUUUUUAAUAUGAAUCUUCCUGUUCGUCCAGGGAGCAAGAACGGGUUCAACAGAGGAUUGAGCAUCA | 3.21 ratio |
| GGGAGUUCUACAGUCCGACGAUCAAAGAGUGGAUAGAGUGUGCACACGGGAUCGGUGGGACCCGGGCGAAAAAGGAGUGCAAGAUAGAGUUCGAUGACUUCGUAGAGUGUUUGCUUCGGUAGAAAACGAUGAGGCGAAUGCAUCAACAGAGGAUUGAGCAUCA | 0.556 ratio |
| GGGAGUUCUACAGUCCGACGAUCCUGGGUAUCAUCUCUCGUGCUGUUAGACACCUGUUCAAGAGUAUUGAUGAGAAAAAGACCUCAGCGAUUAAAAACGGGCUGCCCCCUCCAGAUUUUAAAGUGAAUGCCCAGUUCCUAGAGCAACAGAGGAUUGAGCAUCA | 0.335 ratio |
| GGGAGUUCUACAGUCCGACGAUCGAUCCACAGUGGUCUGAGGAGCAACUCAUUGCUGCAAAAUUCUGUUUUGCUGGCCUUGUUAUAGGGCAGACUGAAGUGGAUAUCAUGAGUCAUGCUACACAAGCUAUUUUUGAAAUUCUGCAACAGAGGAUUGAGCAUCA | 0.155 ratio |
| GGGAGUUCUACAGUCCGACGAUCUUAAACACCAAGCUGAUGGACUCUGAUGGCCUCCAUCUCUCAGGCACGUGUGCCUUCUCUUAGUCCCUGUUUUCGGGAUGUUAUGAAUCUCAGUACUGUGGUUUGAAAGCACCAGCUUUGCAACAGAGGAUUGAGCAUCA | 0.155 ratio |

Sample 5 — target: CCNB1, cyclin fold, Cln2 fusion (human); method: yeast growth competition, sequencing; matrix: yeast; setting: strong parent motif; reference: not given; direction: higher = stronger binding
Starting sequence: MASTL docking peptide (human); PMIAKNLMCELDE; partner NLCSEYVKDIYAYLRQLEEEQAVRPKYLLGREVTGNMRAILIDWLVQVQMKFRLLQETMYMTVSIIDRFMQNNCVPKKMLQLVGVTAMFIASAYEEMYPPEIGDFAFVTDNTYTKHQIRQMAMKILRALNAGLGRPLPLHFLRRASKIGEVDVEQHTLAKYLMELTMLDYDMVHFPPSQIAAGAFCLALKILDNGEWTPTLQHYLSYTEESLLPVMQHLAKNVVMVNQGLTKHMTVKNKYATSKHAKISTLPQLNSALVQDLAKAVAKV
| Substitution | normalised enrichment score |
| --- | --- |
| PMIAKNLMCEFDE [L11F] | 2.99 |
| PMIAKILMCELDE [N6I] | 0.471 |
| PMIAKNRMCELDE [L7R] | -0.09 |
| PSIAKNLMCELDE [M2S] | 2.86 |
| PMIDKNLMCELDE [A4D] | 0.191 |
| PMIAKNLMCELCE [D12C] | 0.813 |
| PMIALNLMCELDE [K5L] | 0.372 |
| PMIAKALMCELDE [N6A] | 0.0292 |
| PMIAKNLMCELQE [D12Q] | 1.23 |
| PMIAKNLMCMLDE [E10M] | 1.35 |
| PMIAKNAMCELDE [L7A] | 0.0369 |
| PMIAKNLMKELDE [C9K] | 1.9 |
| PMIAKNLMCELAE [D12A] | 0.984 |
| PMIAGNLMCELDE [K5G] | -0.247 |
| PMIAKRLMCELDE [N6R] | 0.473 |
| PMIAKNLMVELDE [C9V] | 1.8 |
| PMIAWNLMCELDE [K5W] | 0.326 |

Sample 6 — method: RNA Bind-n-Seq; form: RNA; matrix: in vitro; tested at: 200 nM; setting: whole 134-nt RNA, ends assumed; added: 150 mM KCl; reference: input library; direction: higher = stronger binding
Target: Ras GTPase-activating protein-binding protein 1, full length (G3BP1, Homo sapiens, UniProt Q13283)
UniProt Q13283, sequence (whole entry, looked up): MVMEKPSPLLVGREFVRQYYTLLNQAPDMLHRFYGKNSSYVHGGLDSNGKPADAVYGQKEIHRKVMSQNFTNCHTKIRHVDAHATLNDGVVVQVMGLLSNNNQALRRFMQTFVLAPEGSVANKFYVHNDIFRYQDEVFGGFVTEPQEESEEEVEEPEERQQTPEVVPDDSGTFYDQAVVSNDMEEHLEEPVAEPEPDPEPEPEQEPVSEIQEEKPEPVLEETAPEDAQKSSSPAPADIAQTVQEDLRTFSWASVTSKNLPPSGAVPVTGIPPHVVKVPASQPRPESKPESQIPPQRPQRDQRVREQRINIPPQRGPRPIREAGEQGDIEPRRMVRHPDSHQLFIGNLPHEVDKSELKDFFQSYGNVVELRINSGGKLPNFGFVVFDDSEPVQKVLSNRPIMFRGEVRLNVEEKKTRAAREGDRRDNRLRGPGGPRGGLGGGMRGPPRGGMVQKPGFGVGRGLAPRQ
| Sequence | log2 enrichment |
| --- | --- |
| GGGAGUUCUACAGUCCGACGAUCUCCUGUGCUACACAUCGUAUGUACCGAAUCGGGUUUUUUGGGUUUUUUGGGUUUUUUGGAAAGUAUUAUGUUACGCCGUUCGGAUCUGCAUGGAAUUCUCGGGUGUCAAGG | -0.444 |
| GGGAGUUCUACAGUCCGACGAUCUCCUGUGCUACACAUCGUAUGUACCGAAUCGGUUUUUUGGGGUUUUUUGGGGUUUUUUGGAAAGUAUUAUGUUACGCCGUUCGGAUCUGCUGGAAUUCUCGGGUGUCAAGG | -0.288 |
| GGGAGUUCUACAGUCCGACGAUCUGGGAGGUGGAUUUUGUUUAUUUUUUUAGCUCAUUUCCAGGGGUGGGAAUUUUUUUUUAAUAUGUGUCCUGAAUAAAGUUGUUUUUGAAAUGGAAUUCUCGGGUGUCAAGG | 0.139 |
| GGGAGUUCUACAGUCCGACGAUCCCUCAAGUCCUGUGCUACACAUCGUAUGUACCGAAUCGGAAAGGUGGAAAGGAAAGUAUUAUGUUACGCCGUUCGGAUCUGCACUUCCAGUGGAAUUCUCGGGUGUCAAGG | -0.321 |
| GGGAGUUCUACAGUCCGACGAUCUCAAGUCCUGUGCUACACAUCGUAUGUACCGAAUCGGGUUUGGGAAAGGGUGGGAAAGUAUUAUGUUACGCCGUUCGGAUCUGCACUUCCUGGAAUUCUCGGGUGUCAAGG | 1.16 |
| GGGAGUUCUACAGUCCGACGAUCGUCCUGUGCUACACAUCGUAUGUACCGAAUCAAACCCAAAUUUUUAAACCCCCCCAAAAAAGUAUUAUGUUACGCCGUUCGGAUCUGCACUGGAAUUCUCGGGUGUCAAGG | -0.00791 |
| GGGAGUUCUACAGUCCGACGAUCUCAAGUCCUGUGCUACACAUCGUAUGUACCGAAUCGGCCCGGGGCCCGGCCCGGGAAAGUAUUAUGUUACGCCGUUCGGAUCUGCACUUCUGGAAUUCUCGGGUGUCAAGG | -0.845 |
| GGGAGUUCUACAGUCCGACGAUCCUCAAGUCCUGUGCUACACAUCGUAUGUACCGAAUCGGAGGAAAGGAAAAAGGAAAGUAUUAUGUUACGCCGUUCGGAUCUGCACUUCCAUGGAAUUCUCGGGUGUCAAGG | -0.444 |
| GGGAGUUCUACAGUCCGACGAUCGCAGGAAGUAAAAACAAAUGGAAAUGCUUCGGAUAGUGGCAGGGGUGGGGAAAGCUAAGGAAAGGGUGGGAUGGGAGUGGGUAAAGAGUUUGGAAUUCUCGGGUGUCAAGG | 1.1 |
